{"data": "Measurements gathered from unrelated publications", "UCHL1": "Ubiquitin carboxyl-terminal hydrolase isozyme L1 (UCHL1, Homo sapiens, UniProt P09936)", "Voltage-dependent P/Q-type calcium channel subunit alpha-1A": "Voltage-dependent P/Q-type calcium channel subunit alpha-1A (Homo sapiens, UniProt O00555)", "TOP2A": "DNA topoisomerase 2-alpha (TOP2A, Homo sapiens, UniProt P11388)", "note": "Each line is one published result; not all experiments were run side by side. Values joined by “and” are separate records of one study, mostly repeats; a detail may differ. ± marks the error that the study gave."}
{"SMILES": "Cn1c(=O)oc2cc(C(=O)CCl)ccc21", "tested on": "UCHL1", "assay": "covalent, intact protein LC-MS", "setting": "12.5 µM", "measurement": "labelling", "result": "32.2%"}
{"SMILES": "CN(C)C(=O)C(CCN1CCC(O)(c2ccc(Cl)cc2)CC1)(c1ccccc1)c1ccccc1", "tested on": "Calcium-activated potassium channel subunit alpha-1, with LRRC26 γ1 subunit (KCNMA1, Homo sapiens, UniProt Q12791)", "assay": "BK channel conductance, inside-out patch clamp", "setting": "BKα/γ1, Vm 50 mV, nominally Ca2+-free", "measurement": "Hill coefficient", "result": "0.802 ± 0.11"}
{"SMILES": "CC[C@@H]1[C@H](F)C(=O)N[C@@H]1COc1nccc2cc(C(N)=O)c(OC)cc12", "tested on": "TLK2 (Homo sapiens, UniProt Q86UE8)", "assay": "ATP-site probe binding, ActivX profiling", "system": "THP-1 cell lysate", "setting": "0.04 mM, Lys2 site", "measurement": "inhibition", "result": "9.2%"}
{"SMILES": "CC(C)NC(=O)C(C#N)=Cc1ccc(C#N)cc1", "tested on": "UCHL1", "assay": "covalent, intact protein LC-MS", "setting": "12.5 µM", "measurement": "labelling", "result": "11.3%"}
{"SMILES": "O=C(C[C@@H](C(F)F)n1ccc(F)n1)N1CCC(O)(Cn2cnc3c(cnn3-c3ccc(F)cc3)c2=O)CC1", "tested on": "USP7 (Homo sapiens, UniProt Q93009, V517G)", "assay": "isothermal titration calorimetry", "setting": "concentration not given, USP7 V517G", "measurement": "binding enthalpy", "result": "-16.3 ± 0.329 kcal/mol"}
{"SMILES": "O=C1NC(=O)C(c2ccccc2)(c2ccccc2)N1", "tested on": "Voltage-dependent P/Q-type calcium channel subunit alpha-1A", "assay": "ion current, antagonist", "system": "HEK293", "setting": "10 µM", "measurement": "inhibition", "result": "28%"}
{"SMILES": "Nc1ncnc2c1ncn2[C@@H]1O[C@H](COP(=O)(O)CP(=O)(O)OP(=O)(O)O)[C@@H](O)[C@H]1O", "tested on": "P2X purinoceptor 1 (P2RX1, Homo sapiens, UniProt P51575, F188L)", "assay": "calcium influx", "setting": "10 nM", "how to read": "baseline: ionomycin response", "measurement": "calcium influx", "result": "0% and 2.68% and 3.28%"}
{"SMILES": "N#CC(=Cc1cc(F)ccc1F)C(=O)Nc1ccc(F)cc1", "tested on": "UCHL1", "assay": "covalent, intact protein LC-MS", "setting": "12.5 µM", "measurement": "labelling", "result": "23.4%"}
{"SMILES": "O=C(O)[C@@H](CNC(=O)[C@@H]1C[C@@H]2CC[C@H]1C21CC1)Oc1ccccc1", "tested on": "malate dehydrogenase", "assay": "enzyme activity, inhibitor", "setting": "200 µM, pH 7.0, 1% DMSO, aggregation counter-screen", "measurement": "remaining activity", "result": "93%"}
{"SMILES": "CC(=C/C(=O)O)/C=C/C=C(\\C)C1C=C2C(C)(C)CCCC2(C)O1 (stereo not shown)", "tested on": "Rhodopsin (RHO, Homo sapiens, UniProt P08100, P23H)", "assay": "immunostaining, refers to: opsin", "system": "COS-7 transfected", "setting": "0.10 µM, unit not given", "how to read": "baseline: surface over total stained cells", "measurement": "plasma membrane localization", "result": 0}
{"SMILES": "CC[C@@H](C)[C@@H](NC(=O)[C@@H](Cc1ccc(O)cc1)NC(=O)[C@H]1CCCN1C(=O)[C@@H](CCCNC(=N)N)NC(=O)[C@H](N)Cc1c[nH]cn1)C(=O)N[C@H](C)C(=O)N[C@H](Cc1c[nH]cn1)C(=O)N[C@H](CCCNC(=N)N)C(=O)N[C@@H](C(=O)N[C@H](Cc1ccc(O)cc1)C(=O)N[C@H](CO)C(=O)N[C@H](Cc1ccccc1)C(N)=O)C(C)C", "tested on": "Transferrin receptor protein 1 (Tfrc, Mus musculus, UniProt Q62351)", "assay": "flow cytometry", "system": "RAW264.7", "setting": "2 h, pH 6, replicate 1, unit not given", "how to read": "baseline: 0 h", "measurement": "surface TFRC expression", "result": 0.903}
{"SMILES": "NCCS(=O)(=O)O", "tested on": "SLC6A6 (Homo sapiens, UniProt P31641, Y138A)", "assay": "binding, microscale thermophoresis", "setting": "250 µM, room temperature, together with: 50 nM labelled protein", "how to read": "higher = more binding", "measurement": "normalised MST signal", "result": -0.0167}
{"SMILES": "Cc1nn(C)c(C)c1CN(C(=O)CCl)C1CCCCC1C (stereo not shown)", "tested on": "UCHL1", "assay": "covalent, intact protein LC-MS", "setting": "12.5 µM", "measurement": "labelling", "result": "7.97%"}
{"SMILES": "Nc1ncnc2c1nc(N/N=C/c1ccc([N+](=O)[O-])cc1)n2[C@@H]1O[C@H](CO)[C@@H](O)[C@H]1O", "tested on": "B4GALT1 (Homo sapiens, UniProt P15291)", "assay": "enzyme activity, inhibitor, UDP-Glo", "setting": "10 µM", "how to read": "lower means stronger inhibition", "measurement": "luminescence", "result": "60100 a.u."}
{"SMILES": "Cc1cc(Oc2ncccc2CN2CCN(c3ccccc3Br)CC2)ccc1-c1c(C)c(=O)[nH]c(=O)n1C", "tested on": "ADRA2C (Homo sapiens, UniProt P18825)", "assay": "binding, radioligand binding", "setting": "together with: [3H]rauwolscine", "how to read": "baseline: Ki alpha2A over Ki alpha2C", "measurement": "selectivity ratio", "result": 7}
{"SMILES": "Cc1cc2nc3c(=O)[nH]c(=O)nc-3n(C[C@H](O)[C@H](O)[C@H](O)COP(=O)(O)OP(=O)(O)OC[C@H]3O[C@@H](n4cnc5c(N)ncnc54)[C@H](O)[C@@H]3O)c2cc1C", "tested on": "Acyl-coenzyme A oxidase acox-1.1 (acox-1.1, Caenorhabditis elegans, UniProt O62140)", "assay": "UV spectroscopy", "measurement": "enzyme bound with compound", "result": "56% and 26.8% and 64% and 50% and 43% and 70%"}
{"SMILES": "COc1cc2c(c(OC)c1OC)-c1ccc(OC)c(=O)cc1[C@@H](NC(C)=O)CC2", "tested on": "Voltage-dependent P/Q-type calcium channel subunit alpha-1A", "assay": "ion current, antagonist, automated patch clamp", "measurement": "IC30", "result": "> 30 µM"}
{"SMILES": "CC(C)CCC[C@@H](C)[C@H]1CC[C@@H]2[C@@H]1CC[C@H]1[C@H]2CC=C2C[C@@H](O)CC[C@@H]21", "tested on": "hh, HhC autoprocessing domain (Drosophila melanogaster, UniProt Q02936)", "assay": "substrate, FRET reporter autoprocessing", "setting": "C-H-Y reporter substrate", "measurement": "Km", "result": "4.7 µM"}
{"SMILES": "CC(=O)OC[C@H]1O[C@@H]([S-])[C@H](OC(C)=O)[C@@H](OC(C)=O)[C@@H]1OC(C)=O.CCP(CC)CC.[Au+]", "tested on": "Toxoplasma gondii", "assay": "parasite growth, luciferase reporter", "system": "HFF, tachyzoite", "setting": "72 h", "measurement": "EC90", "result": "6.12 µM"}
{"SMILES": "O=C(O)C1=CCNCC1", "tested on": "BEST1 (Homo sapiens, UniProt O76090)", "assay": "whole-cell patch clamp", "system": "HEK293 transiently expressing channel", "setting": "concentration not given, membrane potential -60 mV", "measurement": "current density", "result": "-78.9 pA/pF and -41 pA/pF and -14.6 pA/pF and -33 pA/pF and -16.4 pA/pF and -12.3 pA/pF"}
{"SMILES": "Cc1ccccc1C1CC(=O)c2c(C)nc(N)nc2C1 (stereo not shown)", "tested on": "Leucine-rich repeat serine/threonine-protein kinase 2, WD40 domain (LRRK2, Homo sapiens, UniProt Q5S007)", "assay": "binding, affinity selection mass spectrometry", "how to read": "baseline: other proteins in batch", "measurement": "log fold enrichment", "result": 0.261}
{"SMILES": "O=C(CCl)N1c2ccccc2SCC1c1ccccc1 (stereo not shown)", "tested on": "UCHL1", "assay": "covalent, intact protein LC-MS", "setting": "12.5 µM", "measurement": "labelling", "result": "10.6%"}
{"SMILES": "O=c1nc(SCc2cc(F)cc(C(F)(F)F)c2)nc(SCc2csc3ccc(Cl)cc23)[nH]1", "tested on": "TOP2A", "assay": "decatenation", "setting": "0.49 µM, replicate 2", "measurement": "decatenated DNA", "result": "0%"}
{"SMILES": "NC(=O)C[C@H](N)C(=O)O", "tested on": "L-asparaginase Candida palmioleophila", "assay": "substrate, Nesslerization", "setting": "pH 7.5, 35 °C", "measurement": "Km", "result": "23 µM"}
{"SMILES": "COc1cc(-c2cncc3c2CN(C)Cc2cc(N4CCNCC4)ccc2-3)cc(OC)c1OC", "tested on": "CLK1 (Homo sapiens, UniProt P49759)", "assay": "kinase activity", "setting": "1 µM, human enzyme, together with: ATP 10 µM", "how to read": "baseline: DMSO control", "measurement": "remaining activity", "result": "112%"}
{"SMILES": "Cn1cc(-c2ccc(-c3cncc(Cl)c3N3CCC4(CCNC4=O)CC3)cc2)cn1", "tested on": "COLO 205", "assay": "gene expression, microarray, refers to: MMP2 mRNA", "setting": "concentration not given, 6 h", "how to read": "baseline: untreated cells", "measurement": "log2 fold change", "result": 1.71}
{"SMILES": "Cc1cc(-c2ccnc3[nH]cc(F)c23)cc(F)c1[C@@]1(O)[C@H](C)CN(C2CCS(=O)(=O)CC2)C[C@@H]1C", "tested on": "STK38L (Homo sapiens, UniProt Q9Y2H1)", "assay": "ATP probe binding, KiNativ, refers to: Lys2 site", "system": "HEK293T cell lysate", "setting": "10 µM", "measurement": "inhibition", "result": "-1.8%"}
{"SMILES": "C=CC(=O)N1CCC(COCC(=O)N2CCN(c3nc(-c4cnc(N)nc4C(F)F)nc(N4CCOC[C@@H]4C)n3)CC2)CC1", "tested on": "MET (Homo sapiens, UniProt P08581, M1250T)", "assay": "KINOMEscan", "setting": "1 µM", "how to read": "baseline: DMSO control", "measurement": "remaining binding", "result": "97%"}
{"SMILES": "Cc1cc(C)c(NC(=O)C(C#N)=Cc2ccccc2)c(C)c1", "tested on": "UCHL1", "assay": "covalent, intact protein LC-MS", "setting": "12.5 µM", "measurement": "labelling", "result": "17.2%"}
{"SMILES": "CCn1cc(C(=O)O)c(=O)c2cc(F)c(N3CCNCC3)nc21", "tested on": "Voltage-dependent P/Q-type calcium channel subunit alpha-1A", "assay": "ion current, antagonist", "system": "HEK293", "setting": "10 µM", "measurement": "inhibition", "result": "1%"}
{"SMILES": "O=c1nc(SCc2cc(F)cc(C(F)(F)F)c2)nc(SCc2ccc3nc(Cl)ccc3c2)[nH]1", "tested on": "TOP2A", "assay": "decatenation", "setting": "125 µM, replicate 1", "measurement": "decatenated DNA", "result": "0%"}
